Results of several laboratories.
Every numbered part comes from another study and shows a few of its results, in no order.

Set 1 — technique: protein-binding microarray; form: double-stranded DNA, one strand shown; medium: in vitro; concentration: 0.8 µM; setting: whole 60-bp probe, no competitor; reading: higher = stronger binding; shared flanks, not repeated: … GTCTTGATTCGCTTGACGCTGCTG
Target: Centromere-binding protein 1, full length, N-terminal tag (CBF1, Saccharomyces cerevisiae, UniProt P17106, residues 1-351)
UniProt P17106, sequence (whole entry, looked up): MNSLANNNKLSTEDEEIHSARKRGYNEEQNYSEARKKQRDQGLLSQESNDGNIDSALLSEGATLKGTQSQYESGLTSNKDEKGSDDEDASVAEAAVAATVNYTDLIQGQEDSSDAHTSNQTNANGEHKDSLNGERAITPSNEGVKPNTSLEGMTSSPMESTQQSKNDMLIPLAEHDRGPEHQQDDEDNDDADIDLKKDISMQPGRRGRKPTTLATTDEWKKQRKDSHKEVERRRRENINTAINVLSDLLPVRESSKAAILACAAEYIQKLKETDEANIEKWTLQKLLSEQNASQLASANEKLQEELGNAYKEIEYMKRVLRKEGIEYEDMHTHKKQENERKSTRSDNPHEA
`CTAATTCTCCGCGGAAACATGACAAACTTTTAGTTC` gave a fluorescence intensity of 526 a.u.
With `CTACAAAAGCTACGTCACCTCACCAATAATCCGTTC` the fluorescence intensity was 547 a.u.
The fluorescence intensity of `CTAGGGACAGAATGCCACCAGACTTCATGACCGTTC` is reported as 585 a.u.
For `GAAAATCAAAAGCATCATGCGGCGGAGGATTTATAG`, the fluorescence intensity was 527 a.u.
For `CCTAACTACTATAGCCACGCTTTATAGCTTCGTACA`, the fluorescence intensity was 495 a.u.
The fluorescence intensity of `GAAACTATCGCGTGCCACCACCATCACAGACAATAG` is reported as 870 a.u.
For `GAATATTGTGATGCGCACGTTGAAATTCACTATTAG`, the fluorescence intensity was 531 a.u.
`GAAAATTCAATCTGGCACGGCACAAGTTCCATCTAG` has a fluorescence intensity of 482 a.u.

Set 2 — technique: universal PBM; form: double-stranded DNA, one strand shown; medium: in vitro; concentration: not given; reading: higher = stronger binding
Target: Sal-like protein 4, full length isoform B (SALL4, Homo sapiens, UniProt Q9UJQ4-2, residues 1-616)
Setting: 8-mer, flanks averaged, mean of replicates
Target sequence (chain): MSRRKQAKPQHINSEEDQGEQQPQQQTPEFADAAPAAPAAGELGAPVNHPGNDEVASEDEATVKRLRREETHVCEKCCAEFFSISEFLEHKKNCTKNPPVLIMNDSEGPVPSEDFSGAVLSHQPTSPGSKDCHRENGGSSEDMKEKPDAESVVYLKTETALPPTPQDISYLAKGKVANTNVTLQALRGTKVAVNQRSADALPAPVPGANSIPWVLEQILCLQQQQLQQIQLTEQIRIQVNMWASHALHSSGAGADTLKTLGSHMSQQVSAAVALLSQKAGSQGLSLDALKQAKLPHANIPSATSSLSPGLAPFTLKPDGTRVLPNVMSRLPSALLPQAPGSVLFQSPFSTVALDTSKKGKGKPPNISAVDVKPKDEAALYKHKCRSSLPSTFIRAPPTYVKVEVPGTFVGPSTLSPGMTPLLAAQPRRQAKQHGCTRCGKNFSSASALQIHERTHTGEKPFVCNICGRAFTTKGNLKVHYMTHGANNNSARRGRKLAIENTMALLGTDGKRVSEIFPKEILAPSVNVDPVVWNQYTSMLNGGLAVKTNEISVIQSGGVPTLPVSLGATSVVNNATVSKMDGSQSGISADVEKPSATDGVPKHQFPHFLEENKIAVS
`ACTAGTGG` gave an E-score of -0.0445.
The E-score of `CCACTGAC` is reported as -0.246.
With `AAACTTAC` the E-score was 0.204.
With `AACCGTAC` the E-score was 0.0247.
With `AGAGCCTG` the E-score was -0.205.
For `ACAAGTTG`, the E-score was 0.039.

Set 3 — technique: RNA Bind-n-Seq; form: RNA; medium: in vitro; concentration: 20 nM; setting: 6-mer, flanks averaged, single round; together with: 150 mM LiCl; reference: input library; reading: higher = stronger binding
Target: TAR DNA-binding protein 43, full length, His tag (TARDBP, Homo sapiens, UniProt Q13148, residues 1-414)
`CUGCGC`: “6-mer enrichment (R)” 0.945.
`GGGGCA`: “6-mer enrichment (R)” 1.2.
`GUGCAC`: “6-mer enrichment (R)” 0.995.
Under “6-mer enrichment (R)”, `AGACAC` is recorded as 0.9.
`CAAAGU` — result for “6-mer enrichment (R)”: 0.869.

Mixed results
`PhoQ, residues 284 288 289 292 302 303 SSCLAV` gave a fold induction of 8.04 (PhoP, residues 12 14 15 18 19 STWGI (Escherichia coli, UniProt P23836); Sort-seq, item: YFP reporter; E. coli; PhoQ-PhoP variant library, together with: 10 µM Mg2+; reference: high Mg2+ state, higher = stronger signaling).

Repeated from above (set 2):
The E-score of `CCACTGAC` is reported as -0.246.
